Measured values gathered from unrelated publications.
Protocols differ between the studies behind these lines. Several values in a cell are separate wells, animals, samples, runs or records. ± marks the error that the study gave.
TOP2A: DNA topoisomerase 2-alpha (TOP2A, Homo sapiens, UniProt P11388)
GAP50: Glideosome-associated protein 50 (GAP50, Plasmodium falciparum, UniProt Q8I2X3)
FFAR4: Free fatty acid receptor 4 (FFAR4, Homo sapiens, UniProt Q5NUL3)
NADH dehydrogenase [ubiquinone] iron-sulfur protein 7, mitochondrial/NADH dehydrogenase [ubiquinone] iron-sulfur protein 2, mitochondrial/MT-ND1: NADH dehydrogenase [ubiquinone] iron-sulfur protein 7, mitochondrial/NADH dehydrogenase [ubiquinone] iron-sulfur protein 2, mitochondrial/MT-ND1 (Homo sapiens, UniProt O75251+O75306+P03886)
TRPM8: Transient receptor potential cation channel subfamily M member 8 (TRPM8, Homo sapiens, UniProt Q7Z2W7)
CXCR4: C-X-C chemokine receptor type 4 (CXCR4, Homo sapiens, UniProt P61073)
Kir3.1/Kir3.2: Kir3.1/Kir3.2 (Homo sapiens, UniProt P48051+P48549)

O=c1nc(SCc2cc(F)cc(C(F)(F)F)c2)nc(SCc2csc3ccc(Cl)cc23)[nH]1  mean decatenated DNA (TOP2A; decatenation; 1.95 µM): 39.1%
CC[C@@H]1[C@H](F)C(=O)N[C@@H]1COc1nccc2cc(C(N)=O)c(OC)cc12  inhibition (RPS6KA1 (Homo sapiens, UniProt Q15418); ATP probe binding, KiNativ profiling, item: domain 1 activation loop; THP-1 cell lysate; 0.01 mM): 18.6%
c1ccc(Oc2ccc(-c3cc(C4CCOCC4)[nH]n3)cc2)cc1  kon (GAP50; binding, surface plasmon resonance; 1:1 binding model): 1360 M⁻¹ s⁻¹
CCCCCCCCCNc1cc(=O)n(C)c(=O)[nH]1  agonist effect (FFAR4; β-arrestin recruitment; CHO; 10 µM; relative to: 30 µM TUG-891): 0%
NC(=O)NOCCCCCCCCCCCC[P+](c1ccccc1)(c1ccccc1)c1ccccc1.O=C([O-])C(F)(F)F  oxygen consumption rate (NADH dehydrogenase [ubiquinone] iron-sulfur protein 7, mitochondrial/NADH dehydrogenase [ubiquinone] iron-sulfur protein 2, mitochondrial/MT-ND1; complex I-dependent respiration, Seahorse XF96; HCT-116; 10 µM, 24 h; relative to: control): 11 ± 1.09%
C#CCN(CCCN1CCN(C2CCCCC2)CC1)Cc1ccc(C(=O)c2ccc([N+](=O)[O-])cc2)cc1  Ki ratio (TMEM97 (Homo sapiens, UniProt Q5BJF2); radioligand binding; RT-4 cell membranes; relative to: sigma1 Ki over sigma2 Ki): 7.88
NC(=O)NO  oxygen consumption rate (NADH dehydrogenase [ubiquinone] iron-sulfur protein 7, mitochondrial/NADH dehydrogenase [ubiquinone] iron-sulfur protein 2, mitochondrial/MT-ND1; complex I-dependent respiration, Seahorse XF96; HCT-116; 100 µM, 24 h; relative to: control): 87.9 ± 9.53%
COc1ccc(CCNc2cc(=O)[nH]c(=O)[nH]2)cc1  inhibition (FFAR4; antagonist, β-arrestin recruitment; CHO cells; 10 µM, with: 4 µM TUG-891): 14 ± 5%
CCC(=O)NS(=O)(=O)c1ccc(-c2c(-c3ccccc3)noc2C)cc1  activation (Nuclear receptor subfamily 4 group A member 2, LBD (Homo sapiens, UniProt P43354); reporter gene, Gal4 hybrid reporter; 50 µM; relative to: vehicle): 0.51 fold
C[C@]12CCC(=O)C=C1CC[C@@H]1[C@@H]2[C@@H](O)C[C@@]2(C)[C@H]1CC[C@]2(O)C(=O)CO  maximal response (NR3C2 (Homo sapiens, UniProt P08235); reporter gene, agonist; relative to: baseline): 73 fold
CO[C@@H]1[C@@H]2OP(=O)(O)OC[C@H]2O[C@H]1n1c(Sc2ccc(Cl)cc2)nc2c(N)ncnc21  relative binding affinity (anti-cAMP antibody; antibody binding, competitive cAMP EIA; concentration not given, acetylated samples; relative to: EC50 cAMP over EC50 cpd, higher = stronger binding): 0.0003
COc1cccc(/C=C2\OC(=O)c3c2cc(C)[nH]c3=O)c1  ligand efficiency (Dual specificity calcium/calmodulin-dependent 3',5'-cyclic nucleotide phosphodiesterase 1C, isoform PDE1C2 (PDE1C, Homo sapiens, UniProt Q14123); enzyme activity, inhibitor; with: 3H-cGMP substrate): 0.4
CN(C)S(=O)(=O)c1ccc2c(c1)/C(=C/c1cc3c([nH]1)CCCC3)C(=O)N2  remaining activity (TRPM8; antagonist; HEK293; 5 µM; relative to: control): 93.1 ± 3.83%
O=c1cc(NCCc2cccc(F)c2)[nH]c(=O)[nH]1  inhibition (FFAR4; antagonist, β-arrestin recruitment; CHO cells; 10 µM): 11 ± 5%
NC(=O)NOCCCCCCCCCCCCCCCCCCCC[P+](c1ccccc1)(c1ccccc1)c1ccccc1.O=C([O-])C(F)(F)F  oxygen consumption rate (NADH dehydrogenase [ubiquinone] iron-sulfur protein 7, mitochondrial/NADH dehydrogenase [ubiquinone] iron-sulfur protein 2, mitochondrial/MT-ND1; complex I-dependent respiration, Seahorse XF96; HCT-116; 20 µM, 24 h; relative to: control): 0 ± 4.42%
Cc1ccc(S(=O)(=O)NCc2ccc(CNC(=O)c3cccnc3)cc2)cc1  EC (CXCR4; binding, inhibitor, competitive binding; MDA-MB-231; with: biotinylated TN14003): > 1000 nM
CCCCCCCCNc1cc(=O)n(C)c(=O)n1C  inhibition (FFAR4; antagonist, β-arrestin recruitment; CHO cells; 10 µM): 30 ± 3%
O=C(COP(=O)(O)O)[C@@H](O)[C@H](O)[C@H](O)COP(=O)(O)O  thermal stability ratio (Eukaryotic translation initiation factor 3 subunit H (Homo sapiens, UniProt O15372); thermal proteome profiling, item: EIF3H; HepG2 cell lysate; concentration not given, 57 over 37 °C; relative to: compound over control): 0.5 and 0.393 and 0.594
COC(=O)c1ccc(NC(=O)COc2cccc(Cl)c2Cl)s1  activity (Kir3.1/Kir3.2; activator, thallium flux; HEK293; concentration not given): inactive
Cc1cc(NCCc2ccccc2)nc(N=C(N)Nc2ccc(Cl)cc2)n1  koff (GAP50; binding, surface plasmon resonance; 1:1 binding model): 0.0517 s⁻¹
O=C(NCc1ccc(CNS(=O)(=O)c2ccccc2)cc1)c1c(Cl)cc(Cl)cc1Cl  EC (CXCR4; binding, inhibitor, competitive binding; MDA-MB-231; with: biotinylated TN14003): 10 nM
C=CC(=O)N1CCC(COCC(=O)N2CCN(c3nc(-c4cnc(N)nc4C(F)F)nc(N4CCOC[C@@H]4C)n3)CC2)CC1  remaining binding (FLT3 (Homo sapiens, UniProt P36888, N841I); KINOMEscan; 1 µM): 95%
Cc1ccc2c(c1C)NC(=O)[C@]21NN=C(c2ccccc2)S1  kon (GAP50; binding, surface plasmon resonance; 1:1 binding model): 3200 M⁻¹ s⁻¹
COc1cc(O)c2c(c1)oc(=O)c1c3cc(O)c(O)cc3oc21  ΔS (MAL12 (Saccharomyces cerevisiae S288c, UniProt P53341); fluorescence quenching; 307 K): -318 J/(mol·K)
CCCCCCNc1[nH]c(=O)[nH]c(=O)c1N=O  activation (FFAR4; agonist, β-arrestin recruitment; CHO cells; 10 µM): 1 ± 1%
Cc1cccc(COc2ccccc2C(=O)N(CCCN)Cc2cccs2)c1  exchange rate kex (TRPM8; 19F CPMG relaxation dispersion; concentration not given, 25 °C, with: saturating ligand): 12000 ± 4000 s⁻¹
[2H]C([2H])(N)c1ccc(C(F)(F)F)cc1  pKa2 (Maoa (Rattus norvegicus, UniProt P21396); kcat/Km descending limb free E S, substrate; pH 6.5-9.5): 9.1 ± 0.2
N#Cc1ccc2[nH]cc(CCCCN3CCN(c4ccc5oc(C(N)=O)cc5c4)CC3)c2c1  Hill coefficient (SLC6A4 (Homo sapiens, UniProt P31645); serotonin uptake, inhibitor; COS-7 expressing SLC6A4; 15 min preincubation, with: [3H]5-HT): 2.09 ± 0.41
CCc1cc(NC(=O)COc2ccc(C(F)(F)F)cc2C(F)(F)F)n(CC(F)(F)F)n1  Emax (Kir3.1/Kir3.2; thallium flux, activator; HEK293; relative to: standard compound): 84%
Cc1cc(N)c2c(C)nn(-c3ccccc3)c2n1  Hill slope (3-oxoacyl-[acyl-carrier-protein] reductase FabG (fabG, Pseudomonas aeruginosa, UniProt O54438); enzyme activity, inhibitor, NADPH fluorescence; reverse reaction, with: 3-OH-decanoyl-NAC, NADP): 1.6
COc1ccc(CCNc2cc(=O)[nH]c(=O)[nH]2)cc1OC  agonist effect (FFAR4; agonist, β-arrestin recruitment; CHO cells; 10 µM; relative to: 30 µM TUG-891): 1%
NCCCC(=O)O  normalised MST signal (SLC6A6 (Homo sapiens, UniProt P31641, G62A); binding, microscale thermophoresis; 31.3 µM, room temperature, with: 50 nM labelled protein; higher = more binding): 0.0108
C[C@H](CCCOc1cccc(CO)c1)[C@H]1CC[C@H]2[C@@H]3CC=C4C[C@@H](O)CC[C@]4(C)[C@H]3CC[C@]12C  efficacy (NR1H2 (Homo sapiens, UniProt P55055); reporter gene, GAL4-LBD transactivation; HepG2): 13.9 ± 0.6%
O=C(NC1CCC1)c1ccc2nc(-c3cccc(NS(=O)(=O)NCCN4CCCCC4)c3)cn2c1  protein level (Protein ENL (MLLT1, Homo sapiens, UniProt Q03111); degrader, immunoblot, item: MLLT1; 10 µM, 12 h; relative to: DMSO control): 8%
Oc1cccc(C(Nc2nccs2)c2ccc3cccnc3c2O)c1 (centres unmarked)  kon (GAP50; surface plasmon resonance): 445 M⁻¹ s⁻¹
Nc1ccc(C(=O)O)cc1  current density (BEST1, with wild-type BEST1 (Homo sapiens, UniProt O76090, R218H); ion current, whole-cell patch clamp; HEK293 co-expressing mutant and wild-type; concentration not given, voltage -100 mV): -13.1 pA/pF and -10.5 pA/pF and -15.8 pA/pF and -26.3 pA/pF and -23.7 pA/pF and -38.4 pA/pF and -4.11 pA/pF and -4.8 pA/pF
O=S(=O)(O)O  reaction velocity (GUK1 (Homo sapiens, UniProt Q16774); enzyme activity, NADH-coupled; 1 mM, with: ATP 250 µM): 0.0893 µM/s and 0.0929 µM/s and 0.102 µM/s
COc1ccc(F)cc1C(=O)NCc1ccc(-c2nn([C@@H](C)C(F)(F)F)c(N)c2C(N)=O)cc1  melting temperature (Tyrosine-protein kinase BTK, SH3-SH2-kinase domains (BTK, Homo sapiens, UniProt Q06187); differential scanning fluorimetry; with: BTK inhibitor 100 µM): 54.5 °C
CCOc1cc(-c2nncn2C)ccc1Nc1ncc2cc(C)nc(NCC(C)(C)C)c2n1  displacement (STK17A (Homo sapiens, UniProt Q9UEE5); binding, LanthaScreen binding; 1 µM): 23%
O=c1nc(SCc2cc(F)cc(C(F)(F)F)c2)nc(SCc2ccc3nc(Cl)ccc3c2)[nH]1  mean linear DNA (TOP2A; DNA cleavage; 7.8 µM): 0%
NC(=O)NOCCCCCCCCCCCCCC[P+](c1ccccc1)(c1ccccc1)c1ccccc1.O=C([O-])C(F)(F)F  oxygen consumption rate (NADH dehydrogenase [ubiquinone] iron-sulfur protein 7, mitochondrial/NADH dehydrogenase [ubiquinone] iron-sulfur protein 2, mitochondrial/MT-ND1; complex I-dependent respiration, Seahorse XF96; HCT-116; 10 µM, 24 h; relative to: control): 7.14 ± 12.6%

For quick reference, copied from above:
NCCCC(=O)O  normalised MST signal (SLC6A6 (Homo sapiens, UniProt P31641, G62A); binding, microscale thermophoresis; 31.3 µM, room temperature, with: 50 nM labelled protein; higher = more binding): 0.0108
C[C@H](CCCOc1cccc(CO)c1)[C@H]1CC[C@H]2[C@@H]3CC=C4C[C@@H](O)CC[C@]4(C)[C@H]3CC[C@]12C  efficacy (NR1H2 (Homo sapiens, UniProt P55055); reporter gene, GAL4-LBD transactivation; HepG2): 13.9 ± 0.6%
COc1cc(O)c2c(c1)oc(=O)c1c3cc(O)c(O)cc3oc21  ΔS (MAL12 (Saccharomyces cerevisiae S288c, UniProt P53341); fluorescence quenching; 307 K): -318 J/(mol·K)
Oc1cccc(C(Nc2nccs2)c2ccc3cccnc3c2O)c1 (centres unmarked)  kon (GAP50; surface plasmon resonance): 445 M⁻¹ s⁻¹
NC(=O)NOCCCCCCCCCCCC[P+](c1ccccc1)(c1ccccc1)c1ccccc1.O=C([O-])C(F)(F)F  oxygen consumption rate (NADH dehydrogenase [ubiquinone] iron-sulfur protein 7, mitochondrial/NADH dehydrogenase [ubiquinone] iron-sulfur protein 2, mitochondrial/MT-ND1; complex I-dependent respiration, Seahorse XF96; HCT-116; 10 µM, 24 h; relative to: control): 11 ± 1.09%
CN(C)S(=O)(=O)c1ccc2c(c1)/C(=C/c1cc3c([nH]1)CCCC3)C(=O)N2  remaining activity (TRPM8; antagonist; HEK293; 5 µM; relative to: control): 93.1 ± 3.83%
O=c1cc(NCCc2cccc(F)c2)[nH]c(=O)[nH]1  inhibition (FFAR4; antagonist, β-arrestin recruitment; CHO cells; 10 µM): 11 ± 5%
